Assay results pooled from the literature.
Numbers after ± are the reported error.
Route: intravenous

`CCCC[C@H](NC(=O)COCCOCCNC(=O)CN1CCN(CC(=O)O)CCN(CC(=O)O)CC1)C(=O)N[C@H]1CC(=O)NCCCC[C@@H](C(N)=O)NC(=O)[C@H](Cc2c[nH]c3ccccc23)NC(=O)[C@H](CCCNC(=N)N)NC(=O)[C@@H](Cc2ccccc2)NC(=O)[C@H](Cc2c[nH]cn2)NC1=O` [fluorine-18 labelled] has a tissue uptake of 0.27 ± 0.4 %ID/g (C57 mice B16-F10 melanoma, pancreas; 0.37 MBq, 1 h).
The tissue uptake of `Cc1cc(C)n(CCN(CCN)CCCCCCNC(=O)[C@@H](N)Cc2c[nH]cn2)n1.[99Tc+].[C-]#[O+].[C-]#[O+].[C-]#[O+]` is reported as 0.72 ± 0.24 %IA/g (BALB/c nude mice, A549 xenograft, lung; 4 h).
`O=C([O-])CN1CCN(CC(=O)[O-])CCN(CC(=O)NC[C@H]2CC[C@H](C(=O)N[C@H](Cc3cnc4ccccc4c3)C(=O)NCCCC[C@H](NC(=O)N[C@@H](CCC(=O)O)C(=O)O)C(=O)O)CC2)CCN(CC(=O)[O-])CC1.[64Cu+2]` has a tissue uptake of 2.51 %ID/g (ex vivo gamma counting; 22Rv1 tumour-bearing mice, blood; 0.74 MBq, 6 h post-injection).
For `COc1ccc(Nc2nc(Nc3ccc(OCCOCCOCC[18F])cc3)ncc2Br)cc1`, the tissue uptake was 3.08 ± 0.2 %ID/g (ICR mice, S180 tumour-bearing, tumor; 370 kBq, 5 min).
For `CC(C)C[C@H](NC(=O)[C@@H](CCCCNC(=O)[C@@H](Cc1ccccc1)NC(=O)CCCCCCCNC(=O)CN1CCN(CC(=O)O)CCN(CC(=O)O)CCN(CC(=O)O)CC1)NC(=O)[C@H](Cc1ccc(O)cc1)NC(=O)[C@H](CO)NC(=O)[C@H](Cc1c[nH]c2ccccc12)NC(=O)[C@H](Cc1c[nH]cn1)NC(=O)[C@@H]1CCC(=O)N1)C(=O)N[C@@H](CCCNC(=N)N)C(=O)N1CCC[C@H]1C(=O)NCC(N)=O` [indium-111 labelled], the tissue uptake was 0.74 ± 0.26 %ID/g (biodistribution; male athymic nude mice, DU-145 prostate cancer xenograft, pancreas; 0.037 MBq, 0.5 h post-injection).
The tissue uptake of `O=C(NCC1OC2CCC=CCCC2O1)c1ccc(COCCOCCOCC[18F])cc1` (stereo not shown) is reported as 1.6 ± 0.1 %ID/g (healthy female BALB/c nude mice, spleen; 7.4 MBq per mouse, 120 min).
The tissue uptake of `CCCC[C@H](NC(=O)CNC(=O)CNC(=O)[C@H](CCCCNC(=O)[C@H](CC(=O)O)NC(=O)C(C)c1ccc(CC(C)C)cc1)NC(=O)CN1CCN(CC(=O)O)CCN(CC(=O)O)CCN(CC(=O)O)CC1)C(=O)N[C@H]1CC(=O)NCCCC[C@@H](C(N)=O)NC(=O)[C@H](Cc2c[nH]c3ccccc23)NC(=O)[C@H](CCCNC(=N)N)NC(=O)[C@@H](Cc2ccccc2)NC(=O)[C@H](Cc2c[nH]cn2)NC1=O` (stereo partly shown) [lutetium-177 labelled] is reported as 2.45 ± 0.19 %ID/g (C57 mice, tumour-bearing, liver; 0.037 MBq, 4 h).
With `COc1ccc(Nc2nc(Nc3ccc(OCCOCC[18F])cc3)ncc2Br)cc1` the tissue uptake was 2.39 ± 0.41 %ID/g (ICR mice, S180 tumour-bearing, muscle; 370 kBq, 30 min).
The tissue uptake of `CCCC[C@H](NC(=O)CCCCCCCNC(=O)CN1CCN(CC(=O)O)CCN(CC(=O)O)CC1)C(=O)N[C@H]1CC(=O)NCCCC[C@@H](C(N)=O)NC(=O)[C@H](Cc2c[nH]c3ccccc23)NC(=O)[C@H](CCCNC(=N)N)NC(=O)[C@@H](Cc2ccccc2)NC(=O)[C@H](Cc2c[nH]cn2)NC1=O` [fluorine-18 labelled] is reported as 13 ± 0.98 %ID/g (C57 mice B16-F10 melanoma, tumor; 0.37 MBq, 1 h).
The tissue uptake of `O=C(NCC1OC2CCC=CCCC2O1)c1ccc([18F])nc1` (stereo not shown) is reported as 1.5 ± 0.3 %ID/g (healthy female BALB/c nude mice, stomach; 7.4 MBq per mouse, 60 min).

Excerpt of the above:
With `COc1ccc(Nc2nc(Nc3ccc(OCCOCC[18F])cc3)ncc2Br)cc1` the tissue uptake was 2.39 ± 0.41 %ID/g (ICR mice, S180 tumour-bearing, muscle; 370 kBq, 30 min).
